Experimental data pooled from the literature.
Parts stem from different laboratories: compare values within a part only.
UniProt P30530, sequence (whole entry, looked up): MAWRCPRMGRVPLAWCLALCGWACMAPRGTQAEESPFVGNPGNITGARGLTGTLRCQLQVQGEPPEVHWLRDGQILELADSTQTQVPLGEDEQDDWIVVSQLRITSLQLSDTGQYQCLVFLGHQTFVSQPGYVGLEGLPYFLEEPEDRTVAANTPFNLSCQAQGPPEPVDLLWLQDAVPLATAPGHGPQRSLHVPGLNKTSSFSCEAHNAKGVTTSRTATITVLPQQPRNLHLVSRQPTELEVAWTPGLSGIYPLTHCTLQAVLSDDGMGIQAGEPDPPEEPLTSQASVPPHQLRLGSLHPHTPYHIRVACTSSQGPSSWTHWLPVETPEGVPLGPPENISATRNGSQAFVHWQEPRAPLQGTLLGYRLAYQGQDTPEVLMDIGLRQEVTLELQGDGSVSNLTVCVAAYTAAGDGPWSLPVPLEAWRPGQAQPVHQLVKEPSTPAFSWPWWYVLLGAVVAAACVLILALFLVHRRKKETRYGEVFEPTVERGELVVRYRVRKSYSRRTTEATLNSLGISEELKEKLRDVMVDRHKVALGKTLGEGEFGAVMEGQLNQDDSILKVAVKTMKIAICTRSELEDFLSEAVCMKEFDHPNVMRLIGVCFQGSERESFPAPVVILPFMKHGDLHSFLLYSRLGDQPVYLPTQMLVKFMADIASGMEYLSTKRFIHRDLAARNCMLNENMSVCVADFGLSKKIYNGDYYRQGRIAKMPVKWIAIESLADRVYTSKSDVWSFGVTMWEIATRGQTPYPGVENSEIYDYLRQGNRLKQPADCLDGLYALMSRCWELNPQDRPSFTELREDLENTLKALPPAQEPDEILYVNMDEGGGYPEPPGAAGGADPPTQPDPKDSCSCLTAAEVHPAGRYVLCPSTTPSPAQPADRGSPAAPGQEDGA
UniProt Q2M2I8, sequence (whole entry, looked up): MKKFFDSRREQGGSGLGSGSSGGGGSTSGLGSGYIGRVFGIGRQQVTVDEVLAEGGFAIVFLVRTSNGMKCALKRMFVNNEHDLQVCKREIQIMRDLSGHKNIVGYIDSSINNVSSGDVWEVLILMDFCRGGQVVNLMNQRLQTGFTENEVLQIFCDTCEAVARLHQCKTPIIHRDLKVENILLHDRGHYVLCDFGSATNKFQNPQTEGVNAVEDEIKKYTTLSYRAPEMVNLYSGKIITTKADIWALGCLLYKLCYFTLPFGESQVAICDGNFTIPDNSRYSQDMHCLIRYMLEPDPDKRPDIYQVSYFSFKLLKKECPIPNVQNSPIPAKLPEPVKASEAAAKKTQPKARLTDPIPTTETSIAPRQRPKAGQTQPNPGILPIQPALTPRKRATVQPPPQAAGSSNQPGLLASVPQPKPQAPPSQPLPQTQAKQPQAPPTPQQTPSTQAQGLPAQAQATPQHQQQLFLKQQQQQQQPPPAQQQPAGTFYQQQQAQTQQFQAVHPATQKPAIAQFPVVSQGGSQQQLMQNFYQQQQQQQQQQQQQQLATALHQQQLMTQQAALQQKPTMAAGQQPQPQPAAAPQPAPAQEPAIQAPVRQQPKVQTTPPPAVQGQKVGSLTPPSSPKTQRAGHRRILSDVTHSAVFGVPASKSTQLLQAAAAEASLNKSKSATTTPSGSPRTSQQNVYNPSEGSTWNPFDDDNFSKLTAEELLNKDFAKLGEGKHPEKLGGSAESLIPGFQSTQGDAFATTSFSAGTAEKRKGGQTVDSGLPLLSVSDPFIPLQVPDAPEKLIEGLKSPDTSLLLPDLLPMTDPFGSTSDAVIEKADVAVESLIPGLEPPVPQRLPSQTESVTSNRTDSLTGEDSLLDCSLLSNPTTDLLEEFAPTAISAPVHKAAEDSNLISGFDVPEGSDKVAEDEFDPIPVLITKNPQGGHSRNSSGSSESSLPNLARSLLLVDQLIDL
UniProt O95819, sequence (whole entry, looked up): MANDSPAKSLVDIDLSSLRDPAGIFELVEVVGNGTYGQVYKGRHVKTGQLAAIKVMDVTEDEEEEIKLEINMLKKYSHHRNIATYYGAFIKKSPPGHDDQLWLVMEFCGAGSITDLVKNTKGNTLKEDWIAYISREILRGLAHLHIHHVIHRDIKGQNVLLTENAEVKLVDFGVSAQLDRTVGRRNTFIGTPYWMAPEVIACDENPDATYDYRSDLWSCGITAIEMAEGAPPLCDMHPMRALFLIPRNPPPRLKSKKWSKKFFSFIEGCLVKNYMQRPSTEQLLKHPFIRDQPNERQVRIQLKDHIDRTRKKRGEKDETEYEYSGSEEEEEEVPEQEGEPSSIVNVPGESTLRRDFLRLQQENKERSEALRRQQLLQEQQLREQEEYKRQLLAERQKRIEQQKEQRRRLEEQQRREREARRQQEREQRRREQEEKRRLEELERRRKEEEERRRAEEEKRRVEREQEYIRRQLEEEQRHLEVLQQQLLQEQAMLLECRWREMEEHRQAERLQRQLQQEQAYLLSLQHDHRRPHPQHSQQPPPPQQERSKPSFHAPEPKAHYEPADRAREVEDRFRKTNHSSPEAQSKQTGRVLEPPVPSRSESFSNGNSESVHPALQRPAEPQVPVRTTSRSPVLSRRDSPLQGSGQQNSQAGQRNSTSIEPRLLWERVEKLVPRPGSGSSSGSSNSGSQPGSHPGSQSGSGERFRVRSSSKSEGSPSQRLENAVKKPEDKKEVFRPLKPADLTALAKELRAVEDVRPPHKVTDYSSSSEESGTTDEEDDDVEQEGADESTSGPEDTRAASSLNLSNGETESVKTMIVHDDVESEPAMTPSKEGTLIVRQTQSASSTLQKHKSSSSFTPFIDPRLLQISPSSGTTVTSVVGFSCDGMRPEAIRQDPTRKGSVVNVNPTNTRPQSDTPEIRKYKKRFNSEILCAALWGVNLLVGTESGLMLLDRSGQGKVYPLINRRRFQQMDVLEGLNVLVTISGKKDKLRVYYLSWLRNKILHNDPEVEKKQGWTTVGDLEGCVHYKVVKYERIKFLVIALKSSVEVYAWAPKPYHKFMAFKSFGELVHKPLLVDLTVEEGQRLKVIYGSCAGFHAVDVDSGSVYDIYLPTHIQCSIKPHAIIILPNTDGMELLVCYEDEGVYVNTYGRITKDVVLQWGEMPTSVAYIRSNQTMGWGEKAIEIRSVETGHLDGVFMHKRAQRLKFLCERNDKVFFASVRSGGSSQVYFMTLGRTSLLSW
UniProt Q9UK32, sequence (whole entry, looked up): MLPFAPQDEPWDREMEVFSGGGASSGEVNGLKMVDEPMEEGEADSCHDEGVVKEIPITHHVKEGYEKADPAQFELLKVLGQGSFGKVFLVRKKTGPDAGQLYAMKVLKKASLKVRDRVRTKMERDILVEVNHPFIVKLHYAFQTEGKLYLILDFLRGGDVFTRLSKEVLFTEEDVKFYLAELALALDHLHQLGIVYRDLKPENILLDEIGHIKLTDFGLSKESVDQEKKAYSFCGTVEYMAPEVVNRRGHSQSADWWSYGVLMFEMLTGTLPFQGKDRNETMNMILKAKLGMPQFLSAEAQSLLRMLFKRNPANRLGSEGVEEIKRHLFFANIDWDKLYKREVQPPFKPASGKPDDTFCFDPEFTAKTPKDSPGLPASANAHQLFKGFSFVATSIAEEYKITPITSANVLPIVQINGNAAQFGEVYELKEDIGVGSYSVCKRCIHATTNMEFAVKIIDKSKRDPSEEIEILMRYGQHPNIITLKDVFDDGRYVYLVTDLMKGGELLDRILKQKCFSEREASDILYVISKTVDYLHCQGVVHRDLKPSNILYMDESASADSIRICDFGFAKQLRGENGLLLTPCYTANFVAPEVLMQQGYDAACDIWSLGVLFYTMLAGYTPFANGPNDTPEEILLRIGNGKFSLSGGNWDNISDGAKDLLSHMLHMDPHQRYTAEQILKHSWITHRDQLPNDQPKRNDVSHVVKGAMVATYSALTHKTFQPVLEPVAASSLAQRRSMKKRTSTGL
UniProt Q9H3Y6, sequence (whole entry, looked up): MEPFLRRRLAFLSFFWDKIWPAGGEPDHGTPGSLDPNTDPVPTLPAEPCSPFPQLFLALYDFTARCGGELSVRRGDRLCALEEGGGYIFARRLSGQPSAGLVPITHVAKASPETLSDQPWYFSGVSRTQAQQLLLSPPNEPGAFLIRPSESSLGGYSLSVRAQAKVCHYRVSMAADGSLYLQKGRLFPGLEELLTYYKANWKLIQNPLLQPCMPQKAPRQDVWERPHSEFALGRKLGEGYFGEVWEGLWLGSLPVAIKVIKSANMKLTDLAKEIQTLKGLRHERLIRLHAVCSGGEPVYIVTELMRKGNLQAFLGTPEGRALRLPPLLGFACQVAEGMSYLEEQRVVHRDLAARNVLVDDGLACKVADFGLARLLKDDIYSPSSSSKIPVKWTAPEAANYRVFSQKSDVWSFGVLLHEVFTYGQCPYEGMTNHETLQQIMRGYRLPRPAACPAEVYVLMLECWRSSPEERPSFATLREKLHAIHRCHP
UniProt Q86YV6, sequence (whole entry, looked up): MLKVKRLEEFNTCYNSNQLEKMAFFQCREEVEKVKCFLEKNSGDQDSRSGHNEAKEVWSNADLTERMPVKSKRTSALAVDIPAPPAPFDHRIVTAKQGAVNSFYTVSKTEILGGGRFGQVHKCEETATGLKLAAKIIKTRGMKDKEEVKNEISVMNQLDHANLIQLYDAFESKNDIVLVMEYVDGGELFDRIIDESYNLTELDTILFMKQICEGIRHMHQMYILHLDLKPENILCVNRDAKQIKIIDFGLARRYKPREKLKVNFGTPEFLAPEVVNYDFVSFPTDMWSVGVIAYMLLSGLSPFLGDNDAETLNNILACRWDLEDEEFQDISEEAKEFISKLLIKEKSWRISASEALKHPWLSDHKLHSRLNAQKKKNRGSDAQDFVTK

Series 1
Compound: CC(C)c1nn(-c2c(Cl)cccc2Cl)c2nc(Cc3ccc(OCCO)cc3)[nH]c(=O)c12
Observed: enzyme activity
Action: inhibitor
Tested at: 0.5 µM
Relative to: control
It gave 96.7% for remaining activity (WNK3 (Homo sapiens, UniProt Q9BYP7)).
For AXL (Homo sapiens, UniProt P30530): remaining activity read 98%.
The remaining activity was 104% (CAMK2B (Homo sapiens, UniProt Q13554)).
MAP4K4 (Homo sapiens, UniProt O95819) — remaining activity: 84.5%.
For RPS6KA5 (Homo sapiens, UniProt O75582): remaining activity read 85.6%.
The remaining activity was 45.6% (Cyclin-dependent kinase 4, with cyclin D3 (CDK4, Homo sapiens, UniProt P11802)).
The remaining activity was 91.5% (SRMS (Homo sapiens, UniProt Q9H3Y6)).
For RPS6KA6 (Homo sapiens, UniProt Q9UK32): remaining activity read 84.8%.
For PHKG1 (Homo sapiens, UniProt Q16816): remaining activity read 87%.
It gave 46.6% for remaining activity (Cyclin-dependent kinase 6, with cyclin D3 (CDK6, Homo sapiens, UniProt Q00534)).
The remaining activity was 98.8% (BLK (Homo sapiens, UniProt P51451)).
It gave 104% for remaining activity (HIPK2 (Homo sapiens, UniProt Q9H2X6)).
The remaining activity was 98.3% (STK17A (Homo sapiens, UniProt Q9UEE5)).
It gave 94.9% for remaining activity (PDPK1 (Homo sapiens, UniProt O15530)).
For EPHB1 (Homo sapiens, UniProt P54762): remaining activity read 91.3%.
The remaining activity was 89.2% (MAPKAPK3 (Homo sapiens, UniProt Q16644)).
The remaining activity was 105% (TSSK2 (Homo sapiens, UniProt Q96PF2)).
The remaining activity was 90.7% (EPHB4 (Homo sapiens, UniProt P54760)).
It gave 94.7% for remaining activity (HIPK4 (Homo sapiens, UniProt Q8NE63)).
It gave 99% for remaining activity (DYRK3 (Homo sapiens, UniProt O43781)).
The remaining activity was 102% (EPHA4 (Homo sapiens, UniProt P54764)).
STK16 (Homo sapiens, UniProt O75716) — remaining activity: 83.8%.
For Cyclin-dependent kinase 1, with cyclin B (CDK1, Homo sapiens, UniProt P06493): remaining activity read -1.2%.

Series 2
Compound: O=C(N[C@H]1CCCCC/C=C\C2C[C@@]2(C(=O)O)NC(=O)[C@@H]2C[C@@H](Oc3ccncc3)CN2C1=O)OC1CCCC1 (stereo partly drawn)
Tested at: 1 µM
MAP3K7 (Homo sapiens, UniProt O43318); binding, competition with immobilised ligand — remaining binding: 77%.
It gave 100% for remaining binding (PIM3 (Homo sapiens, UniProt Q86V86); binding, competition with immobilised ligand).
The remaining binding was 80% (ERN1 (Homo sapiens, UniProt O75460); cell-free assay, competition with immobilised ligand).
It gave 96% for remaining binding (ACVR2A (Homo sapiens, UniProt P27037); binding, competition with immobilised ligand).
The remaining binding was 100% (MYLK4 (Homo sapiens, UniProt Q86YV6); cell-free assay, competition with immobilised ligand).
It gave 100% for remaining binding (PAK6 (Homo sapiens, UniProt Q9NQU5); binding, competition with immobilised ligand).
NEK7 (Homo sapiens, UniProt Q8TDX7); binding, competition with immobilised ligand — remaining binding: 100%.
It gave 95% for remaining binding (AXL (Homo sapiens, UniProt P30530); binding, competition with immobilised ligand).
For NEK9 (Homo sapiens, UniProt Q8TD19); binding, competition with immobilised ligand: remaining binding read 100%.
The remaining binding was 77% (AAK1 (Homo sapiens, UniProt Q2M2I8); binding).
It gave 97% for remaining binding (STK38 (Homo sapiens, UniProt Q15208); binding, competition with immobilised ligand).
It gave 81% for remaining binding (CSNK1D (Homo sapiens, UniProt P48730); cell-free assay, competition with immobilised ligand).
It gave 100% for remaining binding (MAP3K13 (Homo sapiens, UniProt O43283); binding, competition with immobilised ligand).
MAP3K15 (Homo sapiens, UniProt Q6ZN16); binding, competition with immobilised ligand — remaining binding: 68%.
It gave 87% for remaining binding (MAP2K2 (Homo sapiens, UniProt P36507); binding, competition with immobilised ligand).
It gave 100% for remaining binding (RIOK2 (Homo sapiens, UniProt Q9BVS4); binding, competition with immobilised ligand).
FGFR1 (Homo sapiens, UniProt P11362); cell-free assay, competition with immobilised ligand — remaining binding: 100%.
WNK1 (Homo sapiens, UniProt Q9H4A3); binding, competition with immobilised ligand — remaining binding: 90%.
The remaining binding was 76% (CAMK1G (Homo sapiens, UniProt Q96NX5); binding, competition with immobilised ligand).

Series 3
Species: human
Matrix: microsomes or S9
Tested at: 2 µM
Time: 0.5 h
The remaining compound of Cc1sc(NC(=O)NCCC(=O)OC(C)C)c(C#N)c1C is reported as 9.22%.
Cc1ccc2c(c1)N(C(=O)c1ccncc1)CC(C)O2 (stereo not drawn) has a remaining compound of over 100%.
COc1cc(/C=C/C(=O)N2CCC=CC2=O)cc(OC)c1OC has a remaining compound of 28.3%.
COc1nn(C)c(=O)n1-c1cccc(Cl)c1Cl gave a remaining compound of 15.9%.
Fc1ccc(-c2c(-n3cnnc3)nc3ccccc3c2Cl)cc1 has a remaining compound of over 99%.

Further values, each from its own experiment
C[C@@H]1OCC2(CCN(c3cnc(Sc4ccnc(N)c4Cl)c(N)n3)CC2)[C@@H]1N gave an ERK phosphorylation of 43% (immunoblot, measured: phospho-ERK; Ba/F3 KRAS G12C, Mus musculus; 1 µM; relative to: DMSO).

Excerpt of the above (series 2):
It gave 100% for remaining binding (MAP3K13 (Homo sapiens, UniProt O43283); binding, competition with immobilised ligand).
MAP3K15 (Homo sapiens, UniProt Q6ZN16); binding, competition with immobilised ligand — remaining binding: 68%.
It gave 87% for remaining binding (MAP2K2 (Homo sapiens, UniProt P36507); binding, competition with immobilised ligand).
It gave 100% for remaining binding (RIOK2 (Homo sapiens, UniProt Q9BVS4); binding, competition with immobilised ligand).
FGFR1 (Homo sapiens, UniProt P11362); cell-free assay, competition with immobilised ligand — remaining binding: 100%.
WNK1 (Homo sapiens, UniProt Q9H4A3); binding, competition with immobilised ligand — remaining binding: 90%.
